Results from different studies.
Each line is one published result; not all experiments were run side by side. Numbers after ± are the reported error.

`O=C1OC2(c3ccc(O)cc3Oc3cc(O)ccc32)c2ccccc21` gave an apparent permeability of 0.22 ×10⁻⁶ cm/s (human BBB triple coculture; concentration not given, apical to basolateral).
For `CC#CC(=O)N1CCC[C@H]1c1nc(-c2ccc(C(=O)Nc3ccccn3)cc2)c2c(N)nccn12`, “apparent volume of distribution (Vz/F)” read 1940 ± 2900 L (Japanese patients, plasma; oral, 100 mg single dose, fasting, arithmetic mean).
`O=C(C1CCCCC1)N1CC(=O)N2CCc3ccccc3[C@@H]2C1` — result for “apparent oral clearance”: 2340 L/h (healthy men, plasma; oral, 40 mg/kg racemic praziquantel, geometric mean, without ritonavir).
For `C[C@H](Cn1cnc2c(N)ncnc21)OCP(=O)(O)O`, “apparent volume of distribution” read 2660 L (population PK modelling; people living with HIV, plasma; oral, dose not given, after tenofovir alafenamide dosing, base model).
`Cn1c(-c2ccc(C(N)=O)cc2F)nnc1C(C)(C)Oc1c(F)cc(Cl)cc1F`: “apparent volume of distribution Vz/F” 2890 L (young non-Japanese healthy subjects, plasma; oral, 0.2 mg once daily, 3 mg loading day 1, mean, last dosing day).
`C=C[C@@H]1C[C@]1(NC(=O)[C@@H]1C[C@@H](Oc2ncc(OC)c3ccc(Cl)cc23)CN1C(=O)[C@@H](NC(=O)OC(C)(C)C)C(C)(C)C)C(=O)NS(=O)(=O)C1CC1`: “apparent clearance (CL/F)” 52.1 L/h (Japanese HCV patients; typical female 55 kg).
`Cn1cc(-c2cnc3cnn(S(=O)(=O)c4cnc5ccc(-c6cnn(C)c6)cn45)c3c2)cn1`: “apparent volume of distribution” 218 L (healthy Chinese men, plasma; oral, 300 mg single dose, low-fat meal).
Under “apparent volume of distribution”, `COc1cc2nccc(Oc3ccc(NC(=O)NC4CC4)c(Cl)c3)c2cc1C(N)=O` is recorded as about 10 % decrease (healthy volunteers; oral, dose not given, added: ketoconazole; relative to: placebo).
`C=CC(=O)N1CCC(CNc2ncnc(N)c2-c2ccc(Oc3ccccc3)cc2)CC1` — result for “apparent clearance reduction”: 40.6% (population PK model; patients with relapsing multiple sclerosis; dose not given; relative to: healthy participants).

Repeated from above:
For `CC#CC(=O)N1CCC[C@H]1c1nc(-c2ccc(C(=O)Nc3ccccn3)cc2)c2c(N)nccn12`, “apparent volume of distribution (Vz/F)” read 1940 ± 2900 L (Japanese patients, plasma; oral, 100 mg single dose, fasting, arithmetic mean).
